Measurements of several laboratories.
Compare with care: the assays were run in different laboratories. Values joined by “and” are separate records of one study, mostly repeats; a detail may differ. In brackets after ≈: the same amount, converted by molar mass.
Organism: Staphylococcus aureus

SMILES	test	test system	setting	scale	endpoint	result
OB(O)c1ccc(C(F)(F)F)s1	–	USA300 wild type	50 µM	relative to: untreated	growth relative to untreated	53.5% and 60.1% and 60.5% and 70.3% and 58.3% and 66.5%
CC1=C[C@@H](C)[C@H]2[C@@H]3C(=O)C(Cl)(Cl)C(=O)[C@H](C)C(=O)O[C@@H](C)/C=C/C=C\[C@@H](C)[C@@H]3C=C[C@@H]2C1	–	Newman mutant MT2	–	relative to: parent strain	MIC fold shift	16
CC[C@H](C)[C@@H]1NC(=O)[C@@H]([C@@H](C)O)NC(=O)CNC(=O)[C@H](CC(=O)O)NC(=O)CNC(=O)[C@H](CC(=O)O)NC(=O)CNC(=O)[C@H]2CCCCN2C(=O)[C@@H](NC(=O)[C@H](CC(=O)O)NC(=O)/C=C/CCCCCCCCCC(C)C)CNC(=O)[C@@H]2CCCN2C1=O	broth microdilution	BR-VRSA strain 880, Mueller-Hinton broth, Mg2+ 10 mg/L	16 h, added: Ca2+ 0 mM	–	MIC	> 128 µg/mL
C=C(NC(=O)c1csc(-c2nc3c(cc2O)-c2nc(cs2)C(=O)NC(C(C)O)C(=O)NC(=C(C)OC)c2nc(cs2)C(=O)NC2c4nc(cs4)C(=O)NC(COC(=O)c4c5c6c(cccc6n4O)COC(=O)C(OC4CC(C)(O)C(N(C)C)C(C)O4)C2OC5)c2nc-3cs2)n1)C(N)=O (centres unmarked)	–	MRSA strain 2	–	–	MIC	0.0156 µg/mL (≈ 0.0109 µM)
c1ccc(CCNC2CCCc3c2[nH]c2ccc(C4CCCCC4)cc32)cc1 (centres unmarked)	broth microdilution	SG511 daptomycin-resistant	–	–	MIC	2 µg/mL (≈ 5.37 µM)
CC(C)CCCCCCCCC/C=C/C(=O)N[C@@H](CC(=O)O)C(=O)N[C@H]1CNC(=O)[C@@H]2CCCN2C(=O)[C@H](C(C)C)NC(=O)[C@@H](CN)NC(=O)CNC(=O)[C@H](CC(=O)O)NC(=O)CNC(=O)[C@H](CC(=O)O)NC(=O)[C@H](CC(=O)O)NC(=O)[C@H]2CCCCN2C1=O	broth microdilution	MRSA USA300, Mueller-Hinton broth, Mg2+ 10 mg/L	16 h, 37 °C, added: Ca2+ 1.0 mM	–	MIC	8 µg/mL (≈ 6.27 µM)
N=C(N)NCCC[C@H](NC(=O)[C@H](Cc1c[nH]c2ccccc12)NC(=O)[C@H](CCCNC(=N)N)NC(=O)[C@H](CCCNC(=N)N)NC(=O)[C@@H]1CCCN1C(=O)[C@H](CCCCN)NC(=O)[C@@H](N)CCCNC(=N)N)C(=O)N[C@@H](Cc1c[nH]c2ccccc12)C(=O)N[C@@H](Cc1c[nH]c2ccccc12)C(=O)N1CCC[C@H]1C(=O)N[C@@H](CCCCN)C(=O)N[C@@H](CCCNC(=N)N)C(=O)N1CCC[C@H]1C(=O)O	–	09057, female BALB/c mice, sepsis, liver	intraperitoneal, 20 mg/kg	–	log bacterial load	5.12 log(CFU/g) and 4.79 log(CFU/g) and 5.25 log(CFU/g) and 5.4 log(CFU/g) and 5.06 log(CFU/g)
CCCCCCCCCCCCCC(=O)N[C@H]1C(=O)N[C@@H](CN)C(=O)N[C@@H](CO)C(=O)N[C@@H](Cc2ccc(O)cc2)C(=O)O[C@H]1C	–	SH1000	added: phosphatidylglycerol, molar ratio 2	–	MIC	16 µg/mL
